Measurements of several laboratories.
Several values in a cell are separate wells, animals, samples, runs or records. ± gives the spread as reported.

SMILES	cell line	test	test system	conditions	how to read	endpoint	result
Cc1cc(Nc2nc(C[C@@]3(C(=O)O)CCN(Cc4cccc(Cl)c4F)[C@H](C)C3)cc(C)c2F)[nH]n1	SW948	cell growth or viability, ATP luminescence		5 days		IC50	0.103 µM
C=CCN1C(=O)C(CC=C)(C(=O)OCC)Oc2cc(F)ccc21 (stereo not shown)	HEK293T	cytotoxicity, CCK-8		100 µM, 72 h		inhibition	1.11 ± 0.3%
O=C(O)c1ccc(-c2nc(-c3ccccc3Cl)c3sccn23)cc1	K562	erythroid differentiation, flow cytometry		0.01 mM, 72 h		CD235a-positive cells	66.2% and 81.2%
CC(C)Cc1ccc(C(C)C(=O)[Se]CC(=O)Nc2cccc(C(F)(F)F)c2)cc1 (stereo not shown)	NCI60 prostate subpanel (PC-3, DU-145)	cytotoxicity, inhibitor		five-dose		CC50	7.91 µM
C#CCNC(=O)c1ccc(S(=O)(=O)N[C@@H](CCCCNC(C)=S)C(=O)N[C@@H](CCCNC(=N)N)C(=O)N[C@@H](CC2CCCCC2)C(=O)N[C@H](CCCCN)C(=O)N[C@@H](CC2CCCCC2)C(=O)N[C@H](CCCNC(=N)N)C(=O)N[C@@H](CC2CCCCC2)C(N)=O)cc1	Jurkat	cell growth or viability, MTT		72 h		EC50	42.5 µM
CSCC[C@H](NC(=O)[C@@H](NC(=O)[C@H](CCC(N)=O)NC(=O)[C@H](CO)NC(=O)[C@@H](N)C(C)C)[C@@H](C)O)C(=O)N[C@@H](CCCNC(=N)N)C(=O)N[C@@H](CCC(N)=O)C(=O)N[C@H](C(=O)N[C@@H](C)C(=O)N[C@H](C(=O)N1CCC[C@H]1C(=O)N[C@@H](CC(C)C)C(=O)N[C@@H](CC(C)C)C(=O)N[C@@H](Cc1c[nH]c2ccccc12)C(=O)N[C@@H](Cc1ccccc1)C(=O)N[C@@H](Cc1c[nH]c2ccccc12)C(=O)N[C@H](C(=O)NCC(=O)N[C@@H](CO)C(=O)N[C@@H](CC(C)C)C(=O)NCCOCCOCCOCCOCCOCCOCCOCCOCCOCCOCCOCCOCCC(=O)N[C@@H](CS)C(N)=O)[C@@H](C)O)C(C)C)[C@@H](C)O	H322	phage binding		10 min, 37 °C	reference: control phage	selectivity ratio	6.2 ± 2.5
Cc1cc(Oc2nc(N3CC[C@@H](c4ccncc4)C3)ncc2F)[nH]n1	22Rv1	cell proliferation	prostate cancer			IC50	95.5 µM
COc1ccccc1-c1ccncc1C(=O)Nc1nnc(OCc2ccc(Cl)cc2)s1	RPE-1 TP53-/- BRCA1-/-			0.125 µM, average of 2 runs	reference: untreated	colony survival	55.7%
CC(C)[C@H](NC(=O)[C@H](CCCNC(=N)N)NC(=O)[C@@H]1CCCN1C(=O)[C@@H](NC(=O)[C@H](C)NC(=O)[C@H](Cc1ccc(O)cc1)NC(=O)[C@H](CCC(N)=O)NC(=O)[C@H](CCCCN)NC(=O)[C@H](CCCNC(=N)N)NC(=O)[C@@H]1CCCN1C(=O)[C@H](CCC(=O)O)NC(=O)[C@@H](NC(=O)[C@H](C)N)[C@@H](C)O)[C@@H](C)O)C(=O)N[C@@H](Cc1ccccc1)C(=O)N[C@@H](Cc1c[nH]c2ccccc12)C(=O)N[C@H](C(=O)N[C@@H](CC(=O)O)C(=O)N[C@@H](C)C(=O)N1CCC[C@H]1C(=O)NCC(=O)NCCOCCOCCOCCOCCOCCOCCOCCOCCOCCOCCOCCOCCC(=O)N[C@@H](CS)C(N)=O)[C@@H](C)O	H157 lung squamous carcinoma	cell binding, phage binding, measured: output/input phage		10 min, 37 °C	reference: control phage	selectivity ratio	10 ± 5.3
COc1ccc(NC(=O)c2ccc3[nH]c(-c4ccc(N(C)C)cc4)nc3c2)cn1	HCT-116	Caspase-Glo		8 µM, 16 h, unit not given, added: ISRIB 400 nM pre-incubation	reference: DMSO	caspase-3/7 activity	6.12 and 4.74 and 4.4
CC(=O)NCSC[C@H](NC(=O)[C@@H]1CCCN1C(=O)[C@H](C)NC(=O)[C@@H](NC(=O)CNC(=O)[C@@H](NC(=O)[C@H](Cc1c[nH]c2ccccc12)NC(=O)[C@H](C)NC(=O)CNC(=O)[C@H](CO)NC(=O)[C@H](C)NC(=O)[C@@H]1CCCN1C(=O)[C@H](Cc1c[nH]c2ccccc12)NC(=O)[C@H](C)NC(=O)[C@H](C)NC(=O)[C@@H](N)Cc1ccc(O)cc1)[C@@H](C)O)[C@@H](C)O)C(=O)N[C@@H](CO)C(=O)N[C@@H](C)C(=O)NCC(=O)N[C@H](C(=O)NCCOCCOCCOCCOCCOCCOCCOCCOCCOCCOCCOCCOCCC(=O)N[C@@H](CS)C(N)=O)[C@@H](C)O	H2347 lung adenocarcinoma	cell binding, phage binding, measured: output/input phage		10 min, 37 °C	reference: control phage	selectivity ratio	0.33 ± 0.12
O=C(C[Se]C(=O)c1ccccc1)Nc1cccc(C(F)(F)F)c1	NCI60 leukemia subpanel	cell growth		10 µM, 48 h, one-dose		mean growth percent	-64.5%
Cc1cccc(-c2cccc(C)n2)n1.Cc1cccc(-c2cccc(C)n2)n1.F[P-](F)(F)(F)(F)F.F[P-](F)(F)(F)(F)F.[Ru+2].c1ccc2c(-c3nc4c5cccnc5c5ncccc5c4[nH]3)cccc2c1	SK-MEL-28	resazurin		normoxia	reference: blue over green light	phototherapeutic index ratio	11 fold
C#CCN1C(=O)C(CC#C)(C(=O)OCC)Oc2ccccc21 (stereo not shown)	HEK293T	cytotoxicity, CCK-8		0.78 µM, 72 h		inhibition	0%
CNC(=S)N/N=C/c1ccc(OCc2ccccc2)cc1	IMR-32	measured: GPX3		300 µg/mL, 24 h	higher = more activity	glutathione peroxidase activity (OD450)	0.083 a.u.
O=C(C[Se]C(=O)c1ccc2ccccc2c1)Nc1cccc(C(F)(F)F)c1	NCI60 renal subpanel	cytotoxicity, inhibitor		five-dose		CC50	6.76 µM
CC(C)(C)C(=O)OCOP(=O)(OCOC(=O)C(C)(C)C)C1CCCN(O)C1=O (stereo not shown)	PC-3					log TGI	> -4 log M
O=C(C[Se]C(=O)c1ccccc1Nc1ccccc1)Nc1cccc(C(F)(F)F)c1	NCI60 ovarian subpanel	cytotoxicity, inhibitor		five-dose		CC50	7.79 µM
CC(C)C[C@H](NC(=O)[C@H](CC(=O)O)NC(=O)CNC(=O)[C@@H](N)CCCNC(=N)N)C(=O)N[C@@H](C)C(=O)N[C@H](C(=O)N[C@@H](CC(C)C)C(=O)N[C@@H](CCCNC(=N)N)C(=O)N[C@@H](CCC(N)=O)C(=O)N[C@@H](CC(C)C)C(=O)N[C@@H](C)C(=O)N[C@@H](CCC(N)=O)C(=O)N[C@@H](CCC(=O)O)C(=O)N[C@@H](CC(=O)O)C(=O)NCC(=O)N[C@H](C(=O)N[C@H](C(=O)NCC(=O)N[C@H](C(=O)N[C@@H](CCCNC(=N)N)C(=O)NCCOCCOCCOCCOCCOCCOCCOCCOCCOCCOCCOCCOCCC(=O)N[C@@H](CS)C(N)=O)C(C)C)C(C)C)C(C)C)[C@@H](C)O	H1155 lung large cell carcinoma	cell binding, phage binding, measured: output/input phage		10 min, 37 °C	reference: control phage	selectivity ratio	2.6 ± 0.49
O=C(C[Se]C(=O)c1cccs1)Nc1cccc(C(F)(F)F)c1	NCI60 renal subpanel	cell growth, inhibitor		five-dose		GI50	1.7 µM
O=C1C=CC(=O)c2ccccc21	MOLT-3	XTT			reference: IC50 MRC-5 over IC50 MOLT-3	selectivity index	7.21
O=C(C[Se]C(=O)c1ccco1)Nc1cccc(C(F)(F)F)c1	NCI60 renal subpanel	cell growth, inhibitor		five-dose		GI50	3.4 µM
[Cl-].[Cl-].[Ru+2].c1ccc(-c2ccccn2)nc1.c1ccc(-c2ccccn2)nc1.c1ccc2cc3nc4c5cccnc5c5ncccc5c4nc3cc2c1	SK-MEL-28	cell viability		dark, 1% O2		EC50	123 ± 4 µM
O=C(C[Se]C(=O)c1cc2ccccc2o1)Nc1cccc(C(F)(F)F)c1	NCI60 prostate subpanel (PC-3, DU-145)	cytotoxicity, inhibitor		five-dose		CC50	6.39 µM
CC(C)CC(O)(CC(C)C)c1cn(C(=O)N2CCCC2)nn1	mouse T-cells	SILAC proteomics, measured: PAIP2B		1 nM, 6 h, unit not given	reference: DMSO	protein level	0.92
